Published values collected from several papers.
A part holds a random share of what one study measured. Positions count from the first letter of the parent shown. pEC50: −log10 of the molar value.
Chain of UniProt Q96L34 (whole entry, looked up): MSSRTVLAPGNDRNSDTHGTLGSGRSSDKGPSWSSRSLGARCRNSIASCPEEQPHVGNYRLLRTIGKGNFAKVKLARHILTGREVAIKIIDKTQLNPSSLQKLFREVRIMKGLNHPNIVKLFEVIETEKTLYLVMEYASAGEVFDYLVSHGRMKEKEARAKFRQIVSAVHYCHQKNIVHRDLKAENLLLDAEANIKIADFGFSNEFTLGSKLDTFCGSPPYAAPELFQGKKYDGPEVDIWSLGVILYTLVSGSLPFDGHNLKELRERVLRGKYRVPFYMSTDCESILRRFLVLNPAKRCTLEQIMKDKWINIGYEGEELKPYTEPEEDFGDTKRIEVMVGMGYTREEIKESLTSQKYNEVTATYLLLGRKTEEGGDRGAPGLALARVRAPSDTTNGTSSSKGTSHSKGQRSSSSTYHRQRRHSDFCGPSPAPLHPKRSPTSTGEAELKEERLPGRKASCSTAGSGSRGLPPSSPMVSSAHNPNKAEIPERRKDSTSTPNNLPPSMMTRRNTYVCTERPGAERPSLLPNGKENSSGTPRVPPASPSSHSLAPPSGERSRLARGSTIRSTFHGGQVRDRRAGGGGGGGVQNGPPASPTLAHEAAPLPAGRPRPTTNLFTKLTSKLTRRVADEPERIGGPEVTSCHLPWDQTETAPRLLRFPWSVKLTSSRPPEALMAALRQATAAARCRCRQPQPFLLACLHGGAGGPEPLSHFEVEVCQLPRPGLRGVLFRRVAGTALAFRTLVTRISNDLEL
Chain of UniProt P06493 (whole entry, looked up): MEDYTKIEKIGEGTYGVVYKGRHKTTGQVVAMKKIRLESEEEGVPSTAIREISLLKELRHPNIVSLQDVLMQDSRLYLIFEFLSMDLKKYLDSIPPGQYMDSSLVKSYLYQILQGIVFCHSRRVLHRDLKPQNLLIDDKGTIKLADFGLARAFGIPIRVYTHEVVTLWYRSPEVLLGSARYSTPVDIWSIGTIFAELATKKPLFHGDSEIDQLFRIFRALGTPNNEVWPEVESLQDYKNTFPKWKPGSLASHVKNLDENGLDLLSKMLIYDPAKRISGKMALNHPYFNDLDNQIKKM
Chain of UniProt P31751 (whole entry, looked up): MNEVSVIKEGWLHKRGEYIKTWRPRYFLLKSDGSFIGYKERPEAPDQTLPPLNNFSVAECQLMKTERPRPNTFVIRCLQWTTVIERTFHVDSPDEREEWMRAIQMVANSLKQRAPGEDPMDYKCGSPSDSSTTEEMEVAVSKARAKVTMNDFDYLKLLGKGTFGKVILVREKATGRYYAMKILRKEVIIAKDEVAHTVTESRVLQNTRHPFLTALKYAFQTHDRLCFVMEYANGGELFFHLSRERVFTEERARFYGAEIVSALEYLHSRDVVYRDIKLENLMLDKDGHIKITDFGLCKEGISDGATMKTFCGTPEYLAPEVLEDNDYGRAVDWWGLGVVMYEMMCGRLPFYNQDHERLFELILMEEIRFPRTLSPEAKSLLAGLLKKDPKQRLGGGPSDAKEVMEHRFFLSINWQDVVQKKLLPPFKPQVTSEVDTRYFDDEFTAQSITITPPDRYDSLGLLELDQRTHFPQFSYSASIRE
Chain of UniProt P60842 (whole entry, looked up): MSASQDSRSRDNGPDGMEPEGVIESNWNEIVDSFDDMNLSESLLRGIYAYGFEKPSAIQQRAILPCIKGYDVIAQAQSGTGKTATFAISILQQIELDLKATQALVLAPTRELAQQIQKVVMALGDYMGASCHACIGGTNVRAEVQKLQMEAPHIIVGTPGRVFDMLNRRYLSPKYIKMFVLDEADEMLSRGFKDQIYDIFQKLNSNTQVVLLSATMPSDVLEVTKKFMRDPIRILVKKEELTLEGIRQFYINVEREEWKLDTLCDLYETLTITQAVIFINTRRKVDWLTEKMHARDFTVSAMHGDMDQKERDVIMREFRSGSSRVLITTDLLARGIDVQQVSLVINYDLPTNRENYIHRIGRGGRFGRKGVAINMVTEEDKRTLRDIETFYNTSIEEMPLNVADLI
Chain of UniProt P51956 (whole entry, looked up): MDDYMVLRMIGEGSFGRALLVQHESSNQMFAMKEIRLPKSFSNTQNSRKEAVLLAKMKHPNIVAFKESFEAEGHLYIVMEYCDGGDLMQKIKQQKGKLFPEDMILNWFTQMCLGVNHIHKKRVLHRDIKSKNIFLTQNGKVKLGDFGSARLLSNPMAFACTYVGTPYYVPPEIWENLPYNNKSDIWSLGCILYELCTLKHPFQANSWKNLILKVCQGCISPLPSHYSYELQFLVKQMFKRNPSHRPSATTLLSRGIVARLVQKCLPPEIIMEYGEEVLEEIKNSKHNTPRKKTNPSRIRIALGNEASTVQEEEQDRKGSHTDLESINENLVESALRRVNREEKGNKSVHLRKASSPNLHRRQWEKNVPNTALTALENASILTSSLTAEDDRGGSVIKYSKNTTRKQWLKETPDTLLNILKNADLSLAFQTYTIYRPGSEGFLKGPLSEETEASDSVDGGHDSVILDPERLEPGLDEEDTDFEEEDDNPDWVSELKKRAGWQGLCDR
Chain of UniProt P49761 (whole entry, looked up): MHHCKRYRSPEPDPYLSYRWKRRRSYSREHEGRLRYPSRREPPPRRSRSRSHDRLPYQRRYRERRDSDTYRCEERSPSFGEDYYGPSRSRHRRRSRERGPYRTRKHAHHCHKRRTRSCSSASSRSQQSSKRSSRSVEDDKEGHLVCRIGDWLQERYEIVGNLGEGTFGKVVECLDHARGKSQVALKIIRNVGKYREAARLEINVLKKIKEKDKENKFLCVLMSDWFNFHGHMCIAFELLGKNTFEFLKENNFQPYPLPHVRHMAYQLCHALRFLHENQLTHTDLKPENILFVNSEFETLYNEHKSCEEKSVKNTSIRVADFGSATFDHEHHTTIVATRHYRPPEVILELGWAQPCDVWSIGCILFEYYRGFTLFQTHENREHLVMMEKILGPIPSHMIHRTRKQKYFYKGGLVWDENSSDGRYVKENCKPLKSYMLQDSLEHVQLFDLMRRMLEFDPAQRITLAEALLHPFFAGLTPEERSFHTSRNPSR
Chain of UniProt Q8N4C8 (whole entry, looked up): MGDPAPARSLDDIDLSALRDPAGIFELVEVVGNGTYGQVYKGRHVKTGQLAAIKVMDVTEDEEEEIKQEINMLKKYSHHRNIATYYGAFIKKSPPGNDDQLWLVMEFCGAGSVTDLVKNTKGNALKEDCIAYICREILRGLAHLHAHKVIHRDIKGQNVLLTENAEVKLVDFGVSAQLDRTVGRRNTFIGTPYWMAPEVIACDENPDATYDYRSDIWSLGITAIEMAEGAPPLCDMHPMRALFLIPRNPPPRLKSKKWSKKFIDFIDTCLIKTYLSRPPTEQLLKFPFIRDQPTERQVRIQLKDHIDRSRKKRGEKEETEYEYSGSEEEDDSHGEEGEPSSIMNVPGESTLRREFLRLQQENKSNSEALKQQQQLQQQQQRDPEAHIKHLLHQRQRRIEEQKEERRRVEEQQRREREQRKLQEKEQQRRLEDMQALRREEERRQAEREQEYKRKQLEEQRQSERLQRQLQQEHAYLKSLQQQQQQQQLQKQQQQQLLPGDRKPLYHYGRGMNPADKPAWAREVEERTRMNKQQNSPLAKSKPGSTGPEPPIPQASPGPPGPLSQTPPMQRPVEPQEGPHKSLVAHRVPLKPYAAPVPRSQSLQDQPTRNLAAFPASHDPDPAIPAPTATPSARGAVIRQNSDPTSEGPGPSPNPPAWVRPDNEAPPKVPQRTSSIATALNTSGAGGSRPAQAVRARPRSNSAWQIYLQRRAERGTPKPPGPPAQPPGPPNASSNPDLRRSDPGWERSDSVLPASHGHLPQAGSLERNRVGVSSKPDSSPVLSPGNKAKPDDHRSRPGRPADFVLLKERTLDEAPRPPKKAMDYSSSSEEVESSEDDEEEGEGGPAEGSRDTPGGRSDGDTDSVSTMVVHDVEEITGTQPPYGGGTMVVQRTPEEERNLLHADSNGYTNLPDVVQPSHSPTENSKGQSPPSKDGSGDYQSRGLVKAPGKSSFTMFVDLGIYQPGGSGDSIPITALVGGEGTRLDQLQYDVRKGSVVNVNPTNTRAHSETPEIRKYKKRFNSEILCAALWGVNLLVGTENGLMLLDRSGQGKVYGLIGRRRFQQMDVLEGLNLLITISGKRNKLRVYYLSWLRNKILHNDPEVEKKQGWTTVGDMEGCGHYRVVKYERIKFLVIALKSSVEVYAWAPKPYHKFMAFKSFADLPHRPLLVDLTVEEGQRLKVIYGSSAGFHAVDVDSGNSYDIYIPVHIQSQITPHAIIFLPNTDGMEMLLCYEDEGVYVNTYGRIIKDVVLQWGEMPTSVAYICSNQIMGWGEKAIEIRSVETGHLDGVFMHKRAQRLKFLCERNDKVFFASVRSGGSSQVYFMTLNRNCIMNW
Chain of UniProt P08588 (whole entry, looked up): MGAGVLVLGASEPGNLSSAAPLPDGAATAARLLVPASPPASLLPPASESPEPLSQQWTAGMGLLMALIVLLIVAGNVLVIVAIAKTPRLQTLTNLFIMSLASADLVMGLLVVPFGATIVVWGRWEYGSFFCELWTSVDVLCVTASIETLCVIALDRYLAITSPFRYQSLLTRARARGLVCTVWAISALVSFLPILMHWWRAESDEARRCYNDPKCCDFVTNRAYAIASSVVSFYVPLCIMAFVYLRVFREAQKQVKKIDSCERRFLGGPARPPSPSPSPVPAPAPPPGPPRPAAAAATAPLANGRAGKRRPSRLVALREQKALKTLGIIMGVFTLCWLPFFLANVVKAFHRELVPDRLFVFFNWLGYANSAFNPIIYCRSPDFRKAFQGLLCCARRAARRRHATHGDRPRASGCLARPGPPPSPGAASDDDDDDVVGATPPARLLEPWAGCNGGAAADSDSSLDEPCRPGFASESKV

Set 1 — cell line: mouse MPNST tumor cells; technique: high-content nuclear imaging; item: cell number; concentration: 10 µM; time: 12 h; notes: mean of 2 replicates; reference: plate mean; direction: higher = more cells
| SMILES | nuclei count [z-score] |
| --- | --- |
| CC(C)(C)OC(=O)c1ncn2c1[C@@H]1CCCN1C(=O)c1c(Br)cccc1-2 | 3.97 |
| Cn1ncnc1COc1nn2c(-c3c(F)cccc3F)nnc2cc1C1CCC1 | 0.314 |
| Cc1cccc(C)c1NC(=O)CN1CCCC1=O | 0.26 |
| CCn1cnc2c(Nc3cccc(Cl)c3)nc(N[C@@H]3CCCC[C@@H]3N)nc21 | -4.91 |
| O=C(O)c1nn(Cc2ccc(Cl)cc2Cl)c2ccccc12 | 2.55 |

Set 2 — target: CCNA1, cyclin fold, Cln2 fusion (human); technique: yeast growth competition, sequencing; medium: yeast; notes: weak parent motif; reference: not given; direction: higher = stronger binding; starting sequence: viral docking peptide; PGASRRLFGSSAD
| Variant | normalised enrichment score |
| --- | --- |
| PGASKRLLGSSAD [R5K F8L] | 0.168 |
| PGASARLFGSSAD [R5A] | 0.236 |
| PGASRRLFGSAAD [S11A] | 0.466 |
| PGASKRLFGSSAD [R5K] | -0.0398 |
| PGASRRLFASSAD [G9A] | 0.586 |
| PGASRRLAGSSAD [F8A] | 0.0788 |
| PGASRRLFGSSAA [D13A] | 0.405 |
| PAASRRLFGSSAD [G2A] | 0.451 |

Set 3 — observed: enzyme activity; action: inhibitor; concentration: 0.5 µM; reference: control
Structure (SMILES): O=C1NC(=O)c2c1c1c3ccccc3n3c1c1c2c2ccccc2n1[C@H]1CC[C@@H]3O1
| target | remaining activity |
| --- | --- |
| Cyclin-dependent kinase 1, with cyclin A (CDK1, Homo sapiens, UniProt P06493) | 61.7% |
| MARK4 (Homo sapiens, UniProt Q96L34) | 5.31% |
| AKT2 (Homo sapiens, UniProt P31751) | 48.5% |
| NEK3 (Homo sapiens, UniProt P51956) | 102% |
| CLK3 (Homo sapiens, UniProt P49761) | 97% |
| MINK1 (Homo sapiens, UniProt Q8N4C8) | 0.901% |
| DDR2 (Homo sapiens, UniProt Q16832) | 80.1% |

Set 4 — observed: ligand displacement; concentration: 10 µM
Target: D(1B) dopamine receptor (DRD5, Homo sapiens, UniProt P21918)
| Structure (SMILES) | inhibition [%] |
| --- | --- |
| CO[C@H]1CC[C@H](CNc2ccc(S(=O)(=O)NC(=O)c3ccc(N4CCN(CC5=C(c6ccc(Cl)cc6)CC(C)(C)CC5)CC4)cc3Oc3cnc4[nH]ccc4c3)cc2[N+](=O)[O-])CC1 | 34.1 |
| Cc1noc([C@H]2C[C@@H](c3ccc(C(F)(F)F)cc3)CN(C(=O)N3CCS(=O)(=O)C3)C2)n1 | 22.6 |
| CNC(=N)NCCC[C@H](NC(=O)[C@H](CC(C)C)NC(=O)NNC(=O)[C@H](Cc1ccccc1)NC(=O)[C@H](CO)NC(=O)[C@H](CC(N)=O)NC(=O)[C@@H](Cc1ccncc1)NC(=O)[C@H](N)Cc1ccc(O)cc1)C(=O)N[C@@H](Cc1ccccc1)C(N)=O | 0.512 |
| CCC(F)(F)c1cc(N2CCC(S(C)(=O)=O)CC2)nc2sc(C(N)=O)c(N)c12 | 2.13 |
| O=S(=O)(NC1CCC(c2cc(F)ccc2F)(S(=O)(=O)c2ccc(Cl)cc2)CC1)C(F)(F)F (stereo not drawn) | 11.3 |
| NC(=O)c1ccc2nc(-c3ccc(C4(N)CCC4)cc3)c(-c3ccccc3)n2n1 | 23.4 |
| COc1ccc2cc(OCC3(C(=O)O)CN(C(=O)c4ccc(F)cc4)C3)ccc2c1 | -2.51 |
| Nc1nc(NCc2ccccc2)nc(-c2ccccc2CO)n1 | 43.9 |
| Cc1ncc(-c2cc(Cl)ccc2F)cc1-n1c(=O)n(CC(N)=O)c2ccccc21 | 6.12 |
| Cc1ccccc1Oc1cc(-n2c(=O)cc(C(F)(F)F)[nH]c2=O)c2ccccc2c1Cl | 18.7 |
| COCCOc1nc(-c2ccc(Cl)nc2)nc2c1CN(C(=O)c1ncn3ccccc13)CC2 | -3.46 |
| CC(=O)N1CCC(c2ccc(C(=O)NC3=NCCN3)cc2C(F)(F)F)CC1 | -9.82 |
| CC[C@H](CC(=O)O)n1c(=O)c2ncccc2n(Cc2cn(C)c3cc(C)cc(C)c23)c1=O | 22.2 |
| O=C(NCCCC1CCCCC1)c1ccc(CNC(=O)c2cnn(-c3ccccc3)c2C(F)(F)F)cc1 | 23.2 |
| c1ccc(N2CCN(Cc3nc4ccccc4[nH]3)CC2)nc1 | 7.01 |
| Cn1nc(C(=O)NCc2ccc(C(=O)O)cc2)cc1-c1ccc2[nH]ccc2c1 | 73.9 |
| CC1=C(C#N)C(c2ccc3[nH]nc(C)c3c2)C(C#N)=C(C)N1 | 5.4 |
| CN(C)c1ncnc(-c2ccc3nc(Nc4cc(CN5CCN(C(=O)CC(F)(F)F)CC5)ccn4)[nH]c3c2)c1Cl | -9.93 |
| Nc1nc(NCc2ccccc2)nc(-c2cccc(CO)c2)n1 | -13.2 |
| O=C(Nc1ccc(Oc2ccc(F)cc2)cc1)N1CCc2ncccc2[C@H]1c1ccc(F)cc1 | 29.1 |
| O=C1NC(c2ccccn2)Sc2ccccc21 (stereo not drawn) | 11.2 |
| COc1cc(C(=O)O)ncc1C#Cc1ccccc1NS(=O)(=O)c1cccc2c(N(C)C)ccnc12 | -11.2 |

Further values, each from its own experiment
| Structure (SMILES) | tested on | assay | system | setting | quantity | value |
| --- | --- | --- | --- | --- | --- | --- |
| O=C1CCC(N2Cc3c(ccc4c3OCC43CCN(Cc4ccccc4)CC3)C2=O)C(=O)N1 (stereo not drawn) | – | – | Sprague Dawley rats, male, plasma | intravenous, 1.0 mg/kg | steady-state volume of distribution | 3.28 L/kg |
| O=C(O)c1ccc2[nH]cc(CCCCN3CC=C(c4ccccc4)CC3)c2c1 | ADRB1 (Homo sapiens, UniProt P08588) | agonist | – | – | pEC50 | ≤ 4.00 |
| CONC(=O)[C@H]1[C@@H](O)[C@@]2(O)c3c(OC)cc(OC)cc3O[C@@]2(c2ccc(Br)cc2)[C@@H]1c1ccccc1 | EIF4A1 (Homo sapiens, UniProt P60842) | RNA clamping, fluorescence polarization | – | concentration not given, with: FAM-labelled poly r(AG)8 RNA | fluorescence polarization change | 30 mP |
